# Results from different studies.
# Each line is one published result; not all experiments were run side by side. ± gives the spread as reported.
# Cell line: A549
SMILES,effect on,technique,time,notes,together with,IC50 [µM]
O=[N+]([O-])[O-].O=[N+]([O-])[O-].[Co+2],cell viability,MTT,24 h then 48 h recovery,normoxia,,> 500
CN(C)c1cc2c(Nc3ccc4c(cnn4Cc4ccccc4)c3)ncnc2cn1,cell growth or viability,resazurin,5 days,,,> 10
N.N.[Cl][Pt][Cl],cell viability,MTT,48 h,,,22.4 ± 0.64
COC(=O)/C=C/c1cc(O)ccc1O,cell growth or viability,resazurin,5 days,,,> 10
NC([S-])=NN=CC=NN=C(N)[S-].O=[N+]([O-])[O-].[Co+3].c1c[nH]cn1.c1c[nH]cn1,cell viability,MTT,"24 h hypoxic, 48 h normoxic",hypoxic treatment,,2.9 ± 0.7
N.N.[Cl][Pt][Cl],cell viability,MTT,72 h,,,5.63 ± 0.49
N.N.[Cl][Pt][Cl],cell viability,MTT,24 h then 48 h recovery,normoxia,,5.5 ± 3.2
CCN.CCN.O=C([O-])CC(=O)[O-].O=C([O-])CC(=O)[O-].[Pt+4],cell viability,MTT,96 h,,,> 200
NC(=S)N/N=C/C=N/NC(N)=S,cell viability,MTT,"24 h hypoxic, 48 h normoxic",hypoxic treatment,,0.04 ± 0.01
CCCCCCCCCC(=O)N[C@@H](Cc1ccccc1)C(=O)N[C@H](C(=O)NCC(=O)N[C@H](C(=O)N[C@@H](CC(C)C)C(=O)N[C@H](C(=O)N1CCC[C@H]1C(=O)N[C@@H](CC(C)C)C(=O)N[C@@H](C)C(=O)N[C@@H](CC(C)C)C(=O)NCC(=O)N[C@@H](C)C(=O)N[C@@H](CC(C)C)C(=O)N[C@H](C(=O)N[C@@H](CCCCN)C(=O)N[C@@H](CC(C)C)C(=O)N[C@@H](Cc1ccccc1)C(=O)N[C@@H](CCCCN)C(N)=O)[C@@H](C)O)[C@@H](C)CC)[C@@H](C)O)[C@@H](C)CC,cell growth or viability,CCK-8,24 h,,,13.5
N.N.[Cl][Pt][Cl],cell viability,MTT,4 h,,cimetidine 3 mmol/L,19.4 ± 8.23
N.N.[Cl][Pt][Cl],cell growth or viability,,,,,0.95

# Some of these lines once more:
SMILES,effect on,technique,time,notes,together with,IC50 [µM]
CCN.CCN.O=C([O-])CC(=O)[O-].O=C([O-])CC(=O)[O-].[Pt+4],cell viability,MTT,96 h,,,> 200
